Experimental data of several laboratories.
A part holds a random share of what one study measured. Substitutions count along the parent as printed.

Block 1
Target: Prothrombin, mature alpha-thrombin (F2, Homo sapiens, UniProt P00734)
Technique: aptamer microarray, sandwich
Molecule type: DNA with 2'F-ANA
Matrix: in vitro
Concentration: 200 nM
Notes: whole 15-mer aptamer, many near background
Added: Cy3 exosite-II aptamer, 400 nM
Reading: higher = stronger binding
Strand: GGTTGGTGTGGTTGG
| Modification | mean fluorescence intensity |
| --- | --- |
| 2'F-ANA at 2 3 4 5 6 10 11 12 14 | 51.9 a.u. |
| 2'F-ANA at 5 6 7 11 14 15 | 44.5 a.u. |
| 2'F-ANA at 2 4 5 7 8 9 11 14 15 | 126 a.u. |
| 2'F-ANA at 1 3 4 5 7 8 9 12 13 14 15 | 51 a.u. |
| 2'F-ANA at 2 4 7 8 9 11 13 14 | 92.4 a.u. |
| 2'F-ANA at 4 8 11 13 14 | 94.8 a.u. |
| 2'F-ANA at 1 2 3 5 6 7 8 11 14 | 46.4 a.u. |
| 2'F-ANA at 3 6 8 9 11 | 933 a.u. |
| 2'F-ANA at 1 2 6 8 11 12 14 15 | 65.2 a.u. |
| 2'F-ANA at 1 3 5 6 7 9 13 15 | 49.4 a.u. |
| 2'F-ANA at 1 3 4 5 6 7 9 10 13 15 | 49.8 a.u. |
| 2'F-ANA at 7 8 11 12 13 15 | 728 a.u. |
| 2'F-ANA at 1 3 4 9 10 11 12 | 88.5 a.u. |
| 2'F-ANA at 1 2 3 6 7 11 12 | 317 a.u. |
| 2'F-ANA at 2 4 5 6 7 8 12 15 | 142 a.u. |
| 2'F-ANA at 3 4 5 11 | 100 a.u. |
| 2'F-ANA at 2 5 8 9 10 12 14 | 46.2 a.u. |
| 2'F-ANA at 2 3 5 7 10 11 12 15 | 64 a.u. |
| 2'F-ANA at 2 4 8 9 11 13 14 | 80 a.u. |
| 2'F-ANA at 1 2 3 4 5 6 7 8 9 10 12 13 14 15 | 52.2 a.u. |
| 2'F-ANA at 1 2 4 7 8 12 14 | 69 a.u. |
| 2'F-ANA at 2 3 5 8 9 10 11 14 | 119 a.u. |

Block 2
Target: CCND1, cyclin fold, Cln2 fusion (human)
Technique: yeast growth competition, sequencing
Matrix: yeast
Notes: weak parent motif
Reference: not given
Reading: higher = stronger binding
Parent: HIRA docking peptide (human); SLSKRKLELEVET
| Variant | normalised enrichment score |
| --- | --- |
| SLSKRKLALEVET [E8A] | 0.825 |
| SLSKRKLELAVET [E10A] | 0.0635 |
| SLSKRKLELEVEA [T13A] | 0.632 |
| SLSKKKLELEVET [R5K] | 0.596 |
| SLSKAKLELEVET [R5A] | 0.481 |
| SLSKRALELEVET [K6A] | 1.04 |
| SLSARKLELEVET [K4A] | -0.127 |

Block 3
Target: RING finger protein unkempt homolog, zinc fingers 1-6, SBP tag (UNK, Homo sapiens, UniProt Q9C0B0, residues 30-357)
UniProt Q9C0B0, sequence (30-357, looked up): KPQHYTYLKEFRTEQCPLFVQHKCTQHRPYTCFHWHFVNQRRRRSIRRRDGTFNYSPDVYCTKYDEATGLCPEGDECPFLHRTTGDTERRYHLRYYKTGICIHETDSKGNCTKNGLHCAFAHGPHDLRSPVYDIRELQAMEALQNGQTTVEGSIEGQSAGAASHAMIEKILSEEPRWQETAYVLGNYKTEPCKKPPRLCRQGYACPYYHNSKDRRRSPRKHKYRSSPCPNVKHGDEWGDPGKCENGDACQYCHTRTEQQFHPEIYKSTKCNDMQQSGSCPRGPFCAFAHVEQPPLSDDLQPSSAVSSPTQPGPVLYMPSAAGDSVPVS
Technique: RNA Bind-n-Seq
Molecule type: RNA
Matrix: in vitro
Concentration: 100 nM
Notes: RNA with constant flanks, vertebrate orthologous sites, ends assumed
Reference: input RNA pool
Reading: higher = stronger binding
All sequences stand within: GGGAGUUCUACAGUCCGACGAUC … CAACAGAGGAUUGAGCAUCA
| Strand | bound/input enrichment [ratio] |
| --- | --- |
| UUUCACUGGCACCUCCCUUCCCGCUAUUCUGAAACUUCCCGCUAUUCUGAAAAAAAUUUAUUUGGAAUCUUGUUUUCUCAUUCAUGCUCUCUGCAUCAGUCAUGCUUAGCCCAUAAUUAA | 1.39 |
| AUGUAGUUUGUUUUUAAUUUCAAGCAAAGUCUUAUUGUACUUGAAUGUGCCCUGUUUUGUUAGCACACCUAGACUUGCUGUAACUGUACUCAUGUCCCAGUAUGUACGUUCUUUCUAUGA | 1.21 |
| UUCUAGUGCUUACGAGGAUGGUUCAGAAAUUCUGUUUACUUGCAUAUGUAAGUGUGUACAUAGUAAAUCUCAGAUUGUUGCUGGAGUUUUUCUUUCUGAGGGACGAGUUUGAAUCUUGUU | 0.437 |
| AGUCAUGGAGAAGAAGAUACUAAAAAUAAUCUCAUGGCACUGAUACUAAUUUAUUUUUAUUAGUUUUACAAAAGUCAGGGUUCUUGUUUAUAAACAGCAGGUACUGACUAUUAAGGCAAA | 0.225 |
| CUGGCCAAGUUUCUUGCUUUUCUUAUCUUUUUCUUCUUCUUUUUUUCUUUUUUACUUUAUUCCUGUCACACACUCACAACGUCUGUCUCCUUCUCAGAAGAAGGGCUAGAGUUUUAACUU | 3.62 |
| UUUUUUAAUUUAUUUUUCUUUCAUUUUCUUUUUUUUGGGGGUAAAGUUUGCUCUACCAAAUAGUGAUCGUAACAAACUGAUCUGUUAUGGAUGUUGCUAUAGUGACAUGCAAUUAUAUAU | 1.49 |
| GUCAUCUGACUGGAUGAAGACCGUCCCAAGUUACAACCAAACCAAUAGCUCCAUGGACUUUAGAAAUUAUAUGAUGAGAGAUGAGAACCUGGAACCGCUGCCCAAAAACUGGGAAAUGGC | 0.937 |
| GCUGGUGCUUGUCCUCUUCUGAGGAAGAGAUGAAUUGGGGAAACCUGUCUCCUUUUUAUAGUUUCUUUCUAAAUUAUGACCAAAAGAUAUUUUGCUAUUUCUUUCUUUAUAUAUGGACAU | 1.1 |

Block 4
Target: RNA binding protein fox-1 homolog 2, RRM domain, GST-SBP tag (RBFOX2, Homo sapiens, UniProt O43251-10, residues 100-194)
Technique: RNA Bind-n-Seq
Molecule type: RNA
Matrix: in vitro
Concentration: 365 nM
Notes: natural RNA segment, single round, ends assumed
Reference: no-protein control
Reading: higher = stronger binding
All sequences stand within: GGGAGUUCUACAGUCCGACGAUC … UGGAAUUCUCGGGUGCCAA
Residues (chain): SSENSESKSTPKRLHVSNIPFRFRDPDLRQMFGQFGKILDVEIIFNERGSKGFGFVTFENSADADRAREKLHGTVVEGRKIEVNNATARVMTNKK
| Strand | RBNS enrichment (R) |
| --- | --- |
| UCCGCUACAGCCAUACCAGACAGGAACCAAGUGUCCCCGUGUUGGCACCGCUUCCUGGUCUAUUUGCAGAGGUGGUACCCCUCGCUGCCUCCAGGAGAGAGCGCUCCAGG | 0.333 |
| CAGCCUGAUACAGCAUUACUGUUGUCACCAGUUGACUGGAAUUGUAACCUUUUACUUGGGAAUGUGGUGGCCCAAUGUCAGCUGACCUGAAAGAACAUGGCUACCGUGAG | 0.401 |
| AGCCUGCCUCAAUCAGUAUUCAUAUUUAUAGCCAGGUACCUUCUCACCUGUGAGACCAAAUUGAGCUAGGGGGGUCAGCCAGCCCUCUUCUGACACUAAAACACCUCAGC | 0.313 |
| ACCCCCAUUCUUUCCAAGUCAGAUAGUCUUCUGCUGCUGGUACCUGGGUGGGCAAUGGCCACCAUGUCUGCACACACCAGAAAUGGACAUUUUCAUAUGCAAUGGAAAAC | 0.514 |
| GCAGGGGCCAUCCACCCGCCCCAGGACCAGCCCUCAGGGAGGGGAAACGGCCGAGAGCCCCCCCCCGGAGGCCCGAGGGGCCGGGGUGUGGAUGCGGACCGUGGCCAGGC | 0.422 |
| GUUAUUUAAACAGCACUAGUACUGUACACUGGUUUUCCCUUGUGUUUGCUGUUGCACACUGAUUGCUAAGGGUGCAUCCAUUCUAAGCAUUGAAUACUCCAUCCCCUUCC | 0.754 |
| GUAUUCAGAAGCCUUUACUGAUUAAAGUUUUCUUUUAUUUGGGUGGCCGGGAGAGACCCAGGGAGGUUCUGGAGGUUCCUUUCUGUCUCCUGGCCCCACCAGGGAUUUCC | 0.501 |
| CACAAAAACAAAAACCAGAACUAGUCAGAUUGAAACCAUACUGUUCCUCCAGAGCGGCGUUAGACAGGAUAGCGGUCCGCACCGGGGGCCGUGUUUAAGGGAGAUUGGAG | 0.786 |

Excerpt of the above (block 4):
| Strand | RBNS enrichment (R) |
| --- | --- |
| AGCCUGCCUCAAUCAGUAUUCAUAUUUAUAGCCAGGUACCUUCUCACCUGUGAGACCAAAUUGAGCUAGGGGGGUCAGCCAGCCCUCUUCUGACACUAAAACACCUCAGC | 0.313 |
| ACCCCCAUUCUUUCCAAGUCAGAUAGUCUUCUGCUGCUGGUACCUGGGUGGGCAAUGGCCACCAUGUCUGCACACACCAGAAAUGGACAUUUUCAUAUGCAAUGGAAAAC | 0.514 |
| GCAGGGGCCAUCCACCCGCCCCAGGACCAGCCCUCAGGGAGGGGAAACGGCCGAGAGCCCCCCCCCGGAGGCCCGAGGGGCCGGGGUGUGGAUGCGGACCGUGGCCAGGC | 0.422 |
